Results pooled from the literature.
Parts stem from different laboratories: compare values within a part only. Changes are numbered by the printed parent chain.

Series 1
Target: Prothrombin, mature alpha-thrombin (F2, Homo sapiens, UniProt P00734)
Technique: aptamer microarray, sandwich
Molecule type: DNA with 2'F-ANA
Matrix: in vitro
Concentration: 200 nM
Setting: whole 15-mer aptamer, many near background
Added: Cy3 exosite-II aptamer, 400 nM
Direction: higher = stronger binding
Oligonucleotide: GGTTGGTGTGGTTGG
Modification	mean fluorescence intensity [a.u.]
2'F-ANA at 8 10 11 13	132
2'F-ANA at 1 3 4 5 6 8 9 12 13 14 15	50.1
2'F-ANA at 3 6 7 10 13 14 15	389
2'F-ANA at 2 4 5 6 11 12 13 15	73
2'F-ANA at 6 8 11 13 15	378
2'F-ANA at 1 3 5 6 9 10	45.6
2'F-ANA at 1 3 5 6 7 12 13 15	80.3
2'F-ANA at 4 6 10 11 13 15	61.4
2'F-ANA at 2 4 6 7 8 14 15	133
2'F-ANA at 1 2 3 5 6 9 11 12 13 14	52.3
2'F-ANA at 1 2 4 6 9 10 11 14	49.3
2'F-ANA at 2 3 4 5 11 12 14	51.1
2'F-ANA at 1 3 9 10 14 15	58.8
2'F-ANA at 4 5 6 7 8 9 11 14	59.3
2'F-ANA at 1 6 7 9 10	53.2
2'F-ANA at 3 4 8 9 11 13 14	262
2'F-ANA at 3 4 5 6 7 9 10 11 12 14 15	67.5
2'F-ANA at 1 2 5 6 7 9 10 12	50.5

Series 2
Target: RNA binding protein fox-1 homolog 2, RRM domain, GST-SBP tag (RBFOX2, Homo sapiens, UniProt O43251-10, residues 100-194)
Technique: RNA Bind-n-Seq
Molecule type: RNA
Matrix: in vitro
Concentration: 365 nM
Setting: natural RNA segment, single round, ends assumed
Reference: no-protein control
Direction: higher = stronger binding
All sequences stand within: GGGAGUUCUACAGUCCGACGAUC … UGGAAUUCUCGGGUGCCAA
Residues (chain): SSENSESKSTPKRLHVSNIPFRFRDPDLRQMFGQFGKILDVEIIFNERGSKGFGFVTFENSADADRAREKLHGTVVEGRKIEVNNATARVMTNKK
Oligonucleotide	RBNS enrichment (R)
AGUGGUGGCCCUGGGGGGCCAUUCGAUUCGCCUCAGUUGCUGCUGUAAUAAAAGUCUACUUUUUGCUAAAAGCGUCGUGUGUUCGCGCCUUUCCCGCCAGGGGGAGCGGG	0.346
AACUUUGCAAAGACCUUCGUCUUUGAGAAGACGGUAGCUUCUGCAGUUAGGAGGUGCAGACACUUGCUCUCCUAUGUAGUUCUCAGAUGCGUAAAGCAGAACAGCCUCCC	0.195
UUUAGAUUUGAUCUAGGUUGCCUCAAUAGCCUUGGGUGUUUUAUUUAAAUGAAGAGGGGAAUAAACAAGUUGACAGACUCAGGAAUGUAAACAGACAAGGAAGAUAUCCU	0.659
UCUGUAUAUAUAGAGACCACAGAGUUAGGAUUUUUUUUAAUGAGAAAAAUACUGUAUUUAAAAUGUAAAAUAAACUUUUAAAAAGCAAGCACUAAUAUAUAUUUCUUUCA	1.32
UCGCGCACAGGGCCCUCUCUCUUAGAGACUGCUCAGCUUUCGAGUCCAGGGAGGAGUCAGCGGGGAGUCAGCAGGUUCUCUCUCCUCCCUGGGAACUGGGGACCAACCCA	0.277
CAGGAGAAACCGUGCCCAUUUAGAAGAUGGGGCAUUAACUUGUGUAACAGGACUUGGUAGUUUCCACCUAGGAAAACCGAGCUCUCUGGUGUGGUUCGCAGUACUGAGGG	0.361
CCCAUGAAAGAUUAUUAAUUACAUCUCACUGUAGGGUCUUUCUGGUAUUGAGGGGAGUCAGCAUGUAUUUGCAGCUUAUGUUCAUGGGCAUAUAUAAACAUGUGUAUGUG	0.52
CAUUUACUAUGAAUUUACUUCCUCCCAAGAAUUUGGACUGGCCGUCAGACUGUUGCUACAUACAAUUGCCUUUGUAUCUUCGUAUGAAAUAAAAGGUCAUUUGUUCCUGU	0.421

Series 3
Target: Histone acetyltransferase KAT6A, both winged helices, GST fusion (KAT6A, Homo sapiens, UniProt Q92794, residues 1-181)
Technique: protein binding microarray
Molecule type: double-stranded DNA, one strand shown
Matrix: in vitro
Concentration: not given
Setting: 8-mer, flanks averaged, mean of 2 arrays, mostly near background
Reference: not given
Direction: higher = stronger binding
Target sequence (chain): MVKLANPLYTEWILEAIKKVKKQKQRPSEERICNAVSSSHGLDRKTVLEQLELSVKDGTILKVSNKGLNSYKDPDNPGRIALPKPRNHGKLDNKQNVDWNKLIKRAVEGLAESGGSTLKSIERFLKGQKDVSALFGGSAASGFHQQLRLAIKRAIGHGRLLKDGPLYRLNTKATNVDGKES
Oligonucleotide	E-score
AGATGACT	-0.0485
AGTAGTCA	-0.0422
ATTATCTA	-0.0558
CAATCTTC	-0.159
AGTCCTTG	-0.145
AGGTTAAA	-0.0258
CAGTACCA	-0.196
GTGACTAA	-0.00313
GTGGTTTA	0.0667
AAATCTAC	-0.0231
GACTCGCA	0.0534
AGAACTAA	-0.131
AGTCTTCA	-0.22
CGCTTCCC	0.283
CCCACGGG	0.142
GCTATAAA	0.0621
GTAGAAAA	-0.0669
GGATCCGA	0.0653
AGGGAGTG	-0.283
CCGGAGCG	0.317
TCTTTGCA	-0.177
ATGAGCCA	-0.227
GGATATAA	-0.0881
CAAAAGCG	0.255
GAACCCCA	-0.189

Series 4
Target: ABI1, truncated, D143A, DHFR fusion (Arabidopsis thaliana)
Technique: DHFR PCA, deep sequencing
Matrix: yeast
Setting: methotrexate growth selection, single substitutions
Added: (+)-ABA 0.11 µM
Reference: wild-type fitted maximum
Direction: higher = stronger binding
Starting sequence: PYL1, truncated, DHFR fusion (Arabidopsis thaliana); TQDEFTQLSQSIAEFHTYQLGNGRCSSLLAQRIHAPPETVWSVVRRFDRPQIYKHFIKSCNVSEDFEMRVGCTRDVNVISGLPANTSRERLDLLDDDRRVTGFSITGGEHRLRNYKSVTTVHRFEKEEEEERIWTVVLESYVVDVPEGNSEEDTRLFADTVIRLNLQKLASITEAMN
Variant	relative binding score
E38R	0.613%
N114K	4.24%
N85R	58.8%
S171P	-0.658%
I162L	9.36%
L166N	-2.57%
E125N	21.5%
P50A	-5.6%
E4S	12.1%
S117Y	-3.28%
G71P	4.28%
E151W	4.14%
P83F	8.73%
V43L	17.5%
E129I	8.24%
G81L	5.46%
I57Q	-0.846%
H34Y	30.2%
S59W	2.53%
E151F	5.71%
G23A	3.7%
T106V	72%
I79K	2.86%
H16R	1.12%

Series 5
Target: Sal-like protein 4, full length isoform A (SALL4, Homo sapiens, UniProt Q9UJQ4, residues 1-1053)
Chain of UniProt Q9UJQ4 (whole entry, looked up): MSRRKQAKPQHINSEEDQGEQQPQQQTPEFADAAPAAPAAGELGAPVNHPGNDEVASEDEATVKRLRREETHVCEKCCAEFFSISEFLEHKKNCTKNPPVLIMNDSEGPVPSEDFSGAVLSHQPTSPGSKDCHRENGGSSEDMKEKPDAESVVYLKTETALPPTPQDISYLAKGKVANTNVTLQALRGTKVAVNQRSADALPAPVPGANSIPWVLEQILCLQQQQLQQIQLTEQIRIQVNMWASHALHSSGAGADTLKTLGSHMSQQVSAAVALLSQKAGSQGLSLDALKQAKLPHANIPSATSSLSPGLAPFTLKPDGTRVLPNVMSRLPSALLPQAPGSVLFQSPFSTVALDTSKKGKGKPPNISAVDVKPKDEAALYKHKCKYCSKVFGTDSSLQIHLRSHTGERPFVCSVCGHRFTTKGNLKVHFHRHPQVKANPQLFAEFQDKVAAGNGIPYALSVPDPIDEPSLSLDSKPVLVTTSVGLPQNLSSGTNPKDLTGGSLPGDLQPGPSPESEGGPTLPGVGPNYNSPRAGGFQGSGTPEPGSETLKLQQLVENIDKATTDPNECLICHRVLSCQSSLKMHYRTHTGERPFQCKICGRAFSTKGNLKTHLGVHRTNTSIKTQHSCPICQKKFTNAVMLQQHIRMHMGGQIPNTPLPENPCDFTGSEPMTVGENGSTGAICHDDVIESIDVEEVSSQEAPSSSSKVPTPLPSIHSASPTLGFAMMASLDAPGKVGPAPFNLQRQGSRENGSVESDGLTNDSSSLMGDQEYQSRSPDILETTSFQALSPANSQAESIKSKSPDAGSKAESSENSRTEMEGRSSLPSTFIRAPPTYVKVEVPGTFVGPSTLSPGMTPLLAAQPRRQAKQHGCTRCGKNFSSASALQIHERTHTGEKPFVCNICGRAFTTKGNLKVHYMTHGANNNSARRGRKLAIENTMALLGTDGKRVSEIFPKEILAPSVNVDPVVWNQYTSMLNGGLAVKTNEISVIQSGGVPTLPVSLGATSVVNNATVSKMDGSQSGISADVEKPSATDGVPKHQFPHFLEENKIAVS
Technique: universal PBM
Molecule type: double-stranded DNA, one strand shown
Matrix: in vitro
Concentration: 600 nM
Setting: 8-mer, flanks averaged, mean of replicates
Direction: higher = stronger binding
Oligonucleotide	E-score
CAGCTTGA	-0.0354
ATCCCACC	-0.183
ATGTCAGG	0.0259
GATCCGTA	-0.172
CGCATCGA	-0.0124
CCCTGCTA	-0.208
CCAGGCTA	-0.275
CTGACATC	0.0263
CACGGGAG	-0.134
CACCTCGA	-0.0931
GACCACGA	-0.227
ATCGGCCA	-0.188
CACTAGTA	0.0478
ATTCCCCC	-0.129
ACTATCCA	0.00889
TAACCACA	0.144
CCTGGCAG	-0.181
AGGTTCGG	-0.195
ACAAGAAG	0.115
AAGGCCAC	-0.277
CGATTCCA	-0.0106
ACATCAGG	0.069
AGGTAAAG	0.197
CGCCGCTA	-0.283
CCAGTCAG	-0.143
